Measurements gathered from unrelated publications.
A part holds a random share of what one study measured.

Series 1 — method: protein binding microarray; molecule type: double-stranded DNA, one strand shown; matrix: in vitro; concentration: not given; baseline: not given; reading: higher = stronger binding
Target: Histone acetyltransferase KAT6A, winged helix 2, GST fusion (KAT6A, Homo sapiens, UniProt Q92794, residues 85-181)
Notes: 8-mer, flanks averaged, mean of 2 arrays, mostly near background
Residues (chain): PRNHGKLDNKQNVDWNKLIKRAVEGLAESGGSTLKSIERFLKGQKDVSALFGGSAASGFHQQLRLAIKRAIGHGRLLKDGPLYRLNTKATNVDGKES
`AAAGAATT` has an E-score of 0.147.
`AGCGACTA` has an E-score of -0.23.
`CGTGGGGC` has an E-score of 0.171.
`CGGTTTCC` gave an E-score of 0.0838.
The E-score of `CACTAGAG` is reported as -0.0309.
`TATCTCAA` has an E-score of 0.0324.
The E-score of `GAATTAGA` is reported as 0.106.

Series 2 — method: RNA Bind-n-Seq; molecule type: RNA; matrix: in vitro; concentration: 20 nM; notes: 6-mer, flanks averaged, single round; added: 150 mM KCl; baseline: input library; reading: higher = stronger binding
Target: TAR DNA-binding protein 43, full length, His tag (TARDBP, Homo sapiens, UniProt Q13148, residues 1-414)
For `GGCCCA`, “6-mer enrichment (R)” read 0.971.
For `CUCAGC`, “6-mer enrichment (R)” read 0.652.
Under “6-mer enrichment (R)”, `GUCCCU` is recorded as 0.694.
`AAGGGA` — result for “6-mer enrichment (R)”: 2.14.
`UAGGGU` — result for “6-mer enrichment (R)”: 1.8.
`GGCUAG`: “6-mer enrichment (R)” 1.75.
Under “6-mer enrichment (R)”, `AGUCGA` is recorded as 0.787.
`AACCCA` — result for “6-mer enrichment (R)”: 0.617.

Series 3 — method: protein-binding microarray; molecule type: double-stranded DNA, one strand shown; matrix: in vitro; concentration: 940 nM top; notes: 60-bp whole probe; added: salmon DNA 0.4 mg/ml; baseline: random background probes; reading: higher = stronger binding; constant ends, left off below: GCCTAGCAC … GTCTTGATTCGCTTGACGCTGCTG
Target: Interferon regulatory factor 5, full length, phosphomimetic (IRF5, Homo sapiens, UniProt Q13568-2, residues 1-514, S451D/S453D/S456D/S462D)
Under “fitted relative affinity”, `TTGGTTTTCTCTATTGCTTTGTGCTAG` is recorded as 1.9 z-score.
`TTAGATTTCAGACAGGATTAGTGCTAG` — result for “fitted relative affinity”: -0.217 z-score.
Under “fitted relative affinity”, `GACGGTATCGGTCTCGGGGCGTGCTAG` is recorded as 8.35 z-score.
For `TCAAGCCTCAGGCCTCACACTGTGCTA`, “fitted relative affinity” read -0.462 z-score.
`GAAGGACTGCTTTTCCTGACGTGCTAG` — result for “fitted relative affinity”: -0.406 z-score.
`GACGATATCCGGTATCGAGACGTGCTA`: “fitted relative affinity” 1.68 z-score.

Single results of other studies
The fold induction of `PhoQ, residues 284 288 289 292 302 303 QWGLFV` is reported as 1.72 (PhoP, residues 12 14 15 18 19 NYFTV (Escherichia coli, UniProt P23836); Sort-seq, refers to: YFP reporter; E. coli; PhoQ-PhoP variant library, added: 10 µM Mg2+; baseline: high Mg2+ state, higher = stronger signaling).
